Experimental data collected from several papers.
Parts stem from different laboratories: compare values within a part only.
Sequence of UniProt P42336 (whole entry, unmodified, looked up): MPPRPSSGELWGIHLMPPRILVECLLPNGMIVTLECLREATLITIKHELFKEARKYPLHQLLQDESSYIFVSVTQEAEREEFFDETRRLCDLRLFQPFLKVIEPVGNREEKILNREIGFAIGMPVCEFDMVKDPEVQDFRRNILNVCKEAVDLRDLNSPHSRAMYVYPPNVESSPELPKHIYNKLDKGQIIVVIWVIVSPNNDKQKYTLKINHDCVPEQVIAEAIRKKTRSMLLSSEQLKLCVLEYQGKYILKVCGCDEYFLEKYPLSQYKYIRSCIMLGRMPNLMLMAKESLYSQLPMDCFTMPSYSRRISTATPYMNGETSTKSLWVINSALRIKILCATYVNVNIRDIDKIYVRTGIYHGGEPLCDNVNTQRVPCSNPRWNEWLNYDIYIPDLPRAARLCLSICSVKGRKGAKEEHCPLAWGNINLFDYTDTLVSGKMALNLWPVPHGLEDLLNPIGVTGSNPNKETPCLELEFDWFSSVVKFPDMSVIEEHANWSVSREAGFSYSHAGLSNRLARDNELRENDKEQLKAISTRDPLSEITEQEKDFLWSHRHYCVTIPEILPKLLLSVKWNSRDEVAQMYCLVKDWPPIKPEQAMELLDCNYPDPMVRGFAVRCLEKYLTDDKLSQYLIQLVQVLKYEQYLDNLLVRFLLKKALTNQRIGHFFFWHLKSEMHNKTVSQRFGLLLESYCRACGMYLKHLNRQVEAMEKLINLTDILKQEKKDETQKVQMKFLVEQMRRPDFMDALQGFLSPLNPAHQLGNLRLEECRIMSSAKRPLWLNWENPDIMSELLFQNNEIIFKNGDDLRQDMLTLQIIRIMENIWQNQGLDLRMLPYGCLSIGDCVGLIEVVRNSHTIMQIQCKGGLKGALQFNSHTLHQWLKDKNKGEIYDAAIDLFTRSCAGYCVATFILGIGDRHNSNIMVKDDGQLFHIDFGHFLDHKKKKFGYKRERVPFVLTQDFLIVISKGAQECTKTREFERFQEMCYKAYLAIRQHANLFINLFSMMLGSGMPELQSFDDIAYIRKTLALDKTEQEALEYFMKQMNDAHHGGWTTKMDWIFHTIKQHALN
Sequence of UniProt O15075 (whole entry, looked up): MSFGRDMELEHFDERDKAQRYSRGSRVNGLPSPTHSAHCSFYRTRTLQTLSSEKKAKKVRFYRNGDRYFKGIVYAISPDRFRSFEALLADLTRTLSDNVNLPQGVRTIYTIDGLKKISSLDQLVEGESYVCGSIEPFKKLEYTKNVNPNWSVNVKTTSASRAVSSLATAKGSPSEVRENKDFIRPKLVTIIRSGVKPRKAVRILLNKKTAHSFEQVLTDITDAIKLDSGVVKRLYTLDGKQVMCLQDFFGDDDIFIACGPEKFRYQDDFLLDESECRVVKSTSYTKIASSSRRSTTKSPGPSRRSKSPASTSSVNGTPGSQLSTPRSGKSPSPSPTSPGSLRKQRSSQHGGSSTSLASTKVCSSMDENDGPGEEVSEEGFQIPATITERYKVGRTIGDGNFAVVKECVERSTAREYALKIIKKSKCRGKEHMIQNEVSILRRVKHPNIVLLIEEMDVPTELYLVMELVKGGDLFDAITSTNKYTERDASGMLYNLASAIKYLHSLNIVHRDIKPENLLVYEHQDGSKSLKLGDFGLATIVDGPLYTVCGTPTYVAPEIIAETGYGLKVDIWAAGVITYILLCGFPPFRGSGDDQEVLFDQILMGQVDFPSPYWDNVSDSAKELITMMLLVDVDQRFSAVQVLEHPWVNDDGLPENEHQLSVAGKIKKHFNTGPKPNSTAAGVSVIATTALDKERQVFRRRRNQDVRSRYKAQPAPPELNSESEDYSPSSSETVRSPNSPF
Sequence of UniProt Q04759 (whole entry, looked up): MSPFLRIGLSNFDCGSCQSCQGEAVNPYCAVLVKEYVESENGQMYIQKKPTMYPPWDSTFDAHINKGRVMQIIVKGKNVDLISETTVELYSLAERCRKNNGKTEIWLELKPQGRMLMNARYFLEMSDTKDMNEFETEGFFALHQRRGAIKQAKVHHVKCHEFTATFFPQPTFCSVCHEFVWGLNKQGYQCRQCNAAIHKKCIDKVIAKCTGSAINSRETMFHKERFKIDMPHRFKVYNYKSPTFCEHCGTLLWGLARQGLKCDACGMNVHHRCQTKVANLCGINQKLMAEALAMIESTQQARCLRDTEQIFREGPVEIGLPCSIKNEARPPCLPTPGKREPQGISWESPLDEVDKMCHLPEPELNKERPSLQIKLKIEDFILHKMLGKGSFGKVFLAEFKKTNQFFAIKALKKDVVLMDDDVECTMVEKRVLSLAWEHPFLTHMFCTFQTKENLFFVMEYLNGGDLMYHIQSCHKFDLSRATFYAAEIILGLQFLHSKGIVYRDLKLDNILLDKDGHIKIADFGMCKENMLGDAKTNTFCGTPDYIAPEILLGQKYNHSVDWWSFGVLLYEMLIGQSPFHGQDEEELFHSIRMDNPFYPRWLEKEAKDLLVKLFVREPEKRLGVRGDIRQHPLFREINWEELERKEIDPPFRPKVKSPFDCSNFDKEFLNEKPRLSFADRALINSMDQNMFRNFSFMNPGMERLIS
Sequence of UniProt P09769 (whole entry, looked up): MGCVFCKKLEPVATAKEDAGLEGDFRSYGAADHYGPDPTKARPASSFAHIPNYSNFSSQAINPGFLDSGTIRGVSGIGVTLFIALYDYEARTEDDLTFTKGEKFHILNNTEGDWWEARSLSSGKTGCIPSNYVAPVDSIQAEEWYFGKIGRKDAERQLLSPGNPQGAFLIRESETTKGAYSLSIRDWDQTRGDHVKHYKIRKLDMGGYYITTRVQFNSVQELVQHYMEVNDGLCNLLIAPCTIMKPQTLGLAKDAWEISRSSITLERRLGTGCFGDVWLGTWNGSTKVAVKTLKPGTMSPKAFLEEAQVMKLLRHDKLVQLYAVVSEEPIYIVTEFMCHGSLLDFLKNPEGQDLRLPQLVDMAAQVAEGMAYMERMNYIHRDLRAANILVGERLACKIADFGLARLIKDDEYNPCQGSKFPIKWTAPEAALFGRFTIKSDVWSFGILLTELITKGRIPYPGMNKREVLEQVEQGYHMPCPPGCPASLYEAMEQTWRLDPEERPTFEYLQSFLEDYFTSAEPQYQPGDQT
Sequence of UniProt P20794 (whole entry, looked up): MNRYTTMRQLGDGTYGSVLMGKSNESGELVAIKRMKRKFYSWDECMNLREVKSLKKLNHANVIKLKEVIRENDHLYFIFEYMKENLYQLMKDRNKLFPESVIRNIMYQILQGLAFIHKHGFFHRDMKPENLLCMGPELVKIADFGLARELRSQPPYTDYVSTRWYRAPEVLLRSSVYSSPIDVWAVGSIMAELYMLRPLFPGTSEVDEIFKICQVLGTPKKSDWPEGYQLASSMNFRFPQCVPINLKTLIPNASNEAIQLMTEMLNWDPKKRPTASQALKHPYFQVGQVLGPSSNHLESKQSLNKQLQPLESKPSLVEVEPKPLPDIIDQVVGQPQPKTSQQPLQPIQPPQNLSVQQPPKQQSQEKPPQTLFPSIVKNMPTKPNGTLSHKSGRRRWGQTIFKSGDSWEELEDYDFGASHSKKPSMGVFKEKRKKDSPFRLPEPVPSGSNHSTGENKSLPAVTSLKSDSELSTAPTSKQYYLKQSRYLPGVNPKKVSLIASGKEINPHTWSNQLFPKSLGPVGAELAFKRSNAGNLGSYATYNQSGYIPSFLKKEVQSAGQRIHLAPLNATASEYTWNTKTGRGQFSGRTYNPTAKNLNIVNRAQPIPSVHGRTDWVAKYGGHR
Sequence of UniProt Q15835 (whole entry, looked up): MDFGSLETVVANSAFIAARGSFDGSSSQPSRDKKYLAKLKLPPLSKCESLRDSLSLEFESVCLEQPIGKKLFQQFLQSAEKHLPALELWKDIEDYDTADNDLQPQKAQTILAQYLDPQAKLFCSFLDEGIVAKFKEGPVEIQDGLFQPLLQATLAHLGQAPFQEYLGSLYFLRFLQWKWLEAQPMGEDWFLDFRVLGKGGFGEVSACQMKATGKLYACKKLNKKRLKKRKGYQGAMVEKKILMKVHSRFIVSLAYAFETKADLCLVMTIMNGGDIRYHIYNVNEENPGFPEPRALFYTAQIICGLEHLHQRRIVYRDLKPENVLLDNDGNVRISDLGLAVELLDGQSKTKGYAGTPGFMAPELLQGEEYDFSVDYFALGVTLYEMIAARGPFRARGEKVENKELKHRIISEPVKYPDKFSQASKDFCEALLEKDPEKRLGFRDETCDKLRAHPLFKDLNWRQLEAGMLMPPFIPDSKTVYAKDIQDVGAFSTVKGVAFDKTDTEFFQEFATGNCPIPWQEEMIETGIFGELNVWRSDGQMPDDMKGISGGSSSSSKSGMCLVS
Sequence of UniProt Q02156 (whole entry, looked up): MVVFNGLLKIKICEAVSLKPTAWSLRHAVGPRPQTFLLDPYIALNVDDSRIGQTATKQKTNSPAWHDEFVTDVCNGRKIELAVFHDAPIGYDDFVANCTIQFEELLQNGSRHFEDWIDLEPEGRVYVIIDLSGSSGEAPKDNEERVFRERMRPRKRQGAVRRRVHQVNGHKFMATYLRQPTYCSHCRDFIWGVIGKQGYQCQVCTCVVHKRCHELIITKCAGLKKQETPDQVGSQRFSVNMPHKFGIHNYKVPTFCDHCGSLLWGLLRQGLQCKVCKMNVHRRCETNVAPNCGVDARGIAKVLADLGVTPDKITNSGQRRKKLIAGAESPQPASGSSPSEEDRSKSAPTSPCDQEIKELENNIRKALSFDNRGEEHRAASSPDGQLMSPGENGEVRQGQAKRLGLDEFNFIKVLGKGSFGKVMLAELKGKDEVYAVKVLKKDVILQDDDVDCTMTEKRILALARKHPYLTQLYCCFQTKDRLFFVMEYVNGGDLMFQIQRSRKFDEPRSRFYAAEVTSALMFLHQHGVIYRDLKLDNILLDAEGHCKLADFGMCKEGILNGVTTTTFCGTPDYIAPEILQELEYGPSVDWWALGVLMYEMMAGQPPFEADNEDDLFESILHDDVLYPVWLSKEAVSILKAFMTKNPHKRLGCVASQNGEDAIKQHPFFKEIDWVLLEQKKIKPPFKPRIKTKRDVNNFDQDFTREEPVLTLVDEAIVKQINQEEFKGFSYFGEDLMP

Series 1
Cell line: HH
Concentration: 2 µM
Time: 48 h
Reference: untreated
Endpoint: viability
CS(=O)(=O)c1cccc(CNc2nc(Nc3ccc4c(c3)CCC(=O)N4)ncc2C(F)(F)F)c1: 102%
COc1cc2c(c(OC)c1OC)-c1c(cc3c(c1OC)OCO3)C[C@@H](C)[C@@H](C)C2: 97%
CCCCCCCCCCCCc1ccc(S(=O)(=O)Nc2nncs2)cc1: 81.9%
O=C(Nc1cccc(Nc2ncc(Br)c(NCCc3cnc[nH]3)n2)c1)N1CCCC1: 62.4%
Cn1ncc(Cl)c1-c1cc(C(=O)N[C@H](CN)Cc2ccc(F)c(F)c2)oc1Cl: 52.5%
CO[C@H]1C[C@@H]2CC[C@@H](C)[C@@](O)(O2)C(=O)C(=O)N2CCCC[C@H]2C(=O)O[C@H]([C@H](C)C[C@@H]2CC[C@@H](OCCO)[C@H](OC)C2)CC(=O)[C@H](C)/C=C(\C)[C@@H](O)[C@@H](OC)C(=O)[C@H](C)C[C@H](C)/C=C/C=C/C=C/1C: 56.6%
CNC(=O)c1ccccc1Nc1nc(Nc2ccc(N3CCOCC3)cc2OC)ncc1Cl: 67.6%
COc1cc2c(Oc3ccc(NC(=O)C4(C(=O)Nc5ccc(F)cc5)CC4)cc3F)ccnc2cc1OCCCN1CCOCC1: 40.5%
Nc1cccc(S(=O)(=O)N2CCCN(S(=O)(=O)c3ccc4c(c3)OCCO4)CC2)c1: 56.4%

Series 2
Compound: N#Cc1cnc2cnc(NCc3cccnc3)cc2c1Nc1ccc(F)c(Cl)c1
Read-out: enzyme activity
Mode: inhibitor
Concentration: 0.5 µM
Reference: control
Endpoint: remaining activity
RPS6KA1 (Homo sapiens, UniProt Q15418): 94.6%
GRK2 (Homo sapiens, UniProt P25098): 95.7%
MYLK (Homo sapiens, UniProt Q15746): 105%
PRKCE (Homo sapiens, UniProt Q02156): 101%
SGK1 (Homo sapiens, UniProt O00141): 93.2%
EPHA7 (Homo sapiens, UniProt Q15375): 83.7%
BMX (Homo sapiens, UniProt P51813): 84%

Series 3
Organism: Sarcocystis neurona
Read-out: parasite growth
Concentration: 10 µM
Time: 96 h
Endpoint: inhibition
CNC(=C[N+](=O)[O-])NCCSCc1ccc(CN(C)C)o1: -18%
CNCC[C@@H](Oc1ccccc1C)c1ccccc1: -13.5%
C[C@H]1COc2c(C3(N)CC3)c(F)cc3c(=O)c(C(=O)O)cn1c23: -10.2%
Cc1noc(NS(=O)(=O)c2ccc(N)cc2)c1C: -17.6%
COc1ccc(C2CNC(=O)C2)cc1OC1CCCC1 (centres unmarked): -11.5%
CN1CCN(C2=Nc3cc(F)ccc3Cc3ccccc32)CC1: -5.9%
Cc1occc(=O)c1O: -16.6%
CNS(=O)(=O)Cc1ccc2[nH]cc(CCN(C)C)c2c1: -12.8%
CNNCc1ccc(C(=O)NC(C)C)cc1: -7.3%
CC[C@H]1OC(=O)[C@H](C)C(=O)[C@H](C)[C@@H](O[C@@H]2O[C@H](C)C[C@H](N(C)C)[C@H]2O)[C@](C)(OC)C[C@@H](C)C(=O)[C@H](C)[C@H]2N(CCCCn3cnc(-c4cccnc4)c3)C(=O)O[C@]12C: -4.4%

Series 4
SMILES: COc1ccc2c(O[C@@H]3C[C@H]4C(=O)N[C@]5(C(=O)O)CC5/C=C\CCCCC[C@H](NC(=O)OC5CCCC5)C(=O)N4C3)cc(-c3csc(NC(=O)C(C)C)n3)nc2c1C (some centres unmarked)
Read-out: cell-free assay
Technique: competition with immobilised ligand
Concentration: 1 µM
Endpoint: remaining binding
PLK4 (Homo sapiens, UniProt O00444): 77%
MAPK8 (Homo sapiens, UniProt P45983): 81%
DCLK1 (Homo sapiens, UniProt O15075): 76%
FGR (Homo sapiens, UniProt P09769): 100%
MAK (Homo sapiens, UniProt P20794): 100%
PRKCQ (Homo sapiens, UniProt Q04759): 100%
Tyrosine-protein kinase ABL1, phosphorylated (ABL1, Homo sapiens, UniProt P00519, E255K): 80%
DYRK2 (Homo sapiens, UniProt Q92630): 77%
FLT3 (Homo sapiens, UniProt P36888, F691L/ITD): 80%
GRK1 (Homo sapiens, UniProt Q15835): 100%
NEK2 (Homo sapiens, UniProt P51955): 94%
PIK3CA (Homo sapiens, UniProt P42336, M1043I): 88%
